# Measured values collected from several papers.
# Numbered parts are unrelated; each lists some results of a single study. Changes are numbered by the printed parent chain.

# Set 1
# Target: CCNB2, cyclin fold, Cln2 fusion (human)
# Technique: yeast growth competition, sequencing
# Matrix: yeast
# Notes: strong parent motif
# Reference: not given
# Direction: higher = stronger binding
# Starting sequence: PKMYT1 docking peptide (human); SFEPRNLLSLFED; partner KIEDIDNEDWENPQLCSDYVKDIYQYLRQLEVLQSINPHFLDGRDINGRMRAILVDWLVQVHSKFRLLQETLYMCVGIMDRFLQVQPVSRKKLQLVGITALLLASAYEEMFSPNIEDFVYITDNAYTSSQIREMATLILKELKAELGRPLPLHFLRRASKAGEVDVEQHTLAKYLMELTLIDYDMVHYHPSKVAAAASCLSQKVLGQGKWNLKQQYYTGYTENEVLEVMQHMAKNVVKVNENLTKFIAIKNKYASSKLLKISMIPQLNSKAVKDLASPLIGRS
Change,normalised enrichment score
SFEPRNLLWLFED [S9W],0.825
SFEPRNLLSLFEG [D13G],0.81
SQEPRNLLSLFED [F2Q],-0.152
SFEPSNLLSLFED [R5S],0.607
SFEWRNLLSLFED [P4W],0.21
SFEKRNLLSLFED [P4K],1.13
SFEPRNLLSLFEP [D13P],0.616

# Set 2
# Target: Interferon regulatory factor 5, full length, phosphomimetic (IRF5, Homo sapiens, UniProt Q13568-2, residues 1-514, S451D/S453D/S456D/S462D)
# Technique: protein-binding microarray
# Form: double-stranded DNA, one strand shown
# Matrix: in vitro
# Tested at: 940 nM top
# Notes: 60-bp whole probe
# Together with: salmon DNA 0.4 mg/ml
# Reference: random background probes
# Direction: higher = stronger binding
# Shared flanks, not repeated: GCCTAGCAC … GTCTTGATTCGCTTGACGCTGCTG
Strand,fitted relative affinity
TAACTTTCCAATTGTCCTTTCGTGCTA,1.26 z-score
TTAGGCTTCGACACTGGGTTAGTGCTA,-0.214 z-score
GACGGCTTCGACTATCGGGACGTGCTA,-0.275 z-score
GACGAACTGAGTCTCGGGACGTGCTAG,0.426 z-score
GACGAATTGGGGTATCGAGACGTGCTA,1.11 z-score
TGAGGTTTCGACTATCGGTTAGTGCTA,6.94 z-score
TGAGGTTCCGGTTTCGGTTAGTGCTAG,9.07 z-score
TTAGCTATCGACTTTCGGTTAGTGCTA,2.97 z-score

# Set 3
# Target: Ras GTPase-activating protein-binding protein 1, full length (G3BP1, Homo sapiens, UniProt Q13283)
# Sequence of UniProt Q13283 (whole entry, looked up): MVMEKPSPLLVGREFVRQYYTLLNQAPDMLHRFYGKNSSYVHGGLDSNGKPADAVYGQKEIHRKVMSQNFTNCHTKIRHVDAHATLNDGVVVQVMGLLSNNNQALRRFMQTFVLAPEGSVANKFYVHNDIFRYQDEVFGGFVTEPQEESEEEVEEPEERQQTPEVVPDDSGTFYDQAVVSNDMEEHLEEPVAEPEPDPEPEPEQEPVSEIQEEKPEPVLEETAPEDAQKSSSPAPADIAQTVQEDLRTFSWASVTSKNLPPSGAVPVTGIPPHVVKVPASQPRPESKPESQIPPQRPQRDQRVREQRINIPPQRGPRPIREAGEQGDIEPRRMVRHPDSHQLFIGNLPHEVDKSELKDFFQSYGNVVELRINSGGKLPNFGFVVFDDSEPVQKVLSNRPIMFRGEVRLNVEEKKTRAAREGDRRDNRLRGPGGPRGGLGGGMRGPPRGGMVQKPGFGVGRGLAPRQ
# Technique: RNA Bind-n-Seq
# Form: RNA
# Matrix: in vitro
# Tested at: 200 nM
# Notes: whole 134-nt RNA, ends assumed
# Together with: 150 mM LiCl
# Reference: input library
# Direction: higher = stronger binding
# Each molecule: 7-deaza-guanosine replaces G
# Shared flanks, not repeated: GGGAGUUCUACAGUCCGACGAUC … UGGAAUUCUCGGGUGUCAAGG
Strand,log2 enrichment
AAGUCCUGUGCUACACAUCGUAUGUACCGAAUCGGUUUUUUUGGUUUGGAAAAAGGAAAGUAUUAUGUUACGCCGUUCGGAUCUGCACUU,-1.77
ACCAUGCAGGUGGGCAUCUUUGGGAAGUGGGGCAAGGGGGGGAUACGGAGGGGGGUAACACUUUGGGAACAGGUGGUCCCAGGUCGUUUC,0.0286
CACAGACAACACACACCCACACAGACACAGAGGGAAGGGGUUGGGAUGGGGACAGGGUGCACAGCAGGGCGGGGUAGGACCCCAGCCCCU,-0.303
CAAGUCCUGUGCUACACAUCGUAUGUACCGAAUCGGAGGAAAAAAAGGAAAAAGGAAAGUAUUAUGUUACGCCGUUCGGAUCUGCACUUC,-0.289
UCCUGUGCUACACAUCGUAUGUACCGAAUCGGAAAAAAGGGGAAAAAAGGAAAAAAGGGAAAGUAUUAUGUUACGCCGUUCGGAUCUGCA,-0.136
AGUCCUGUGCUACACAUCGUAUGUACCGAAUCGGCCCCCGGGCCCCCGGGCCCCCGGGAAAGUAUUAUGUUACGCCGUUCGGAUCUGCAC,-1.36
UAACUUUAGAGGAGGAUCUGAUGGAUAUGGCAGUGGACGUGGAUUUGGGGAUGGCUAUAAUGGGUAUGGAGGAGGAACUGGAGGUGGCAA,0.381

# Further values, each from its own experiment
Molecule,target,test,test system,conditions,how to read,measurement,result
"PhoQ, residues 284 288 289 292 302 303 SSTMSV","PhoP, residues 12 14 15 18 19 SQCLL (Escherichia coli, UniProt P23836)","Sort-seq, measured: YFP reporter",E. coli,"PhoQ-PhoP variant library, together with: 10 µM Mg2+","reference: high Mg2+ state, higher = stronger signaling",fold induction,15
